Published values from different studies.
A part holds a random share of what one study measured.

Block 1
Target: RNA binding protein fox-1 homolog 2, RRM domain, GST-SBP tag (RBFOX2, Homo sapiens, UniProt O43251-10, residues 100-194)
Technique: RNA Bind-n-Seq
Molecule type: RNA
Medium: in vitro
Concentration: 365 nM
Setting: natural RNA segment, single round, ends assumed
Baseline: no-protein control
Reading: higher = stronger binding
Constant ends, left off below: GGGAGUUCUACAGUCCGACGAUC … UGGAAUUCUCGGGUGCCAA
| Strand | RBNS enrichment (R) |
| --- | --- |
| UUAAAAGAGCUCUAAAUUUGCUUGUAUAUAAAGGCUUAAUAUGAGUUUUACUUGUUAGGGUCAAGGGUGUCUUGCCCAUUAACAGCUGUAGAUAGACAUUAAAGUAAAGC | 0.983 |
| CCUCGUAAGCAUUGGAAGGUCAAAUUAUUUUGAAGUGAUUUUUUUAAAAAAAAGUCUUCUGUUUAUUAACAGGAAAAUUUAUUUAUUUGACAGGAUUUUGAGUAAUGUAG | 0.869 |
| CAGGAAUAUUAAGUUCUAUAACUAGUACUCAAGGUUUAACCUUAAAAUUAAGAUUUCCUUAACCUUAACCUUAAAAUUGAUAUUAUAUUAAACAUACAUAAUACAAUGUA | 0.562 |
| CGAUCGCAUCUUGUGUCGCUGAGGCGGCGCACUGAGGGACCAGAUGGACUCCAGCCCUUCAGGAGGCAAGAGGAAAAAAGUGCUCUCGGUUCCCCAGGGGAUCUCUGGGA | 0.542 |
| UAGAAAGCUCUUGCAUGCUUGAGUCCACCAUUGGGGGAAAUGACAGAAAACUGGACCUGAGGGCAUUAGGAACAUCCUACAGAGUUGUGUUUAGUGUCGUUUGCCAUGGU | 8.03 |
| AGGCUUGAGAAAAGUGGGGCUGGGGAGAAGCAGGCUUGUCAGACUCCACCCCUGUUGAUGAUCAUUCCUGGGAAGGGGUUUCUCGUUCUAUGCAAUCCUAAAGGACGAAA | 0.409 |

Block 2
Target: Centromere-binding protein 1, full length, His-tagged (CBF1, Saccharomyces cerevisiae, UniProt P17106, residues 1-351)
UniProt P17106, sequence (whole entry, looked up): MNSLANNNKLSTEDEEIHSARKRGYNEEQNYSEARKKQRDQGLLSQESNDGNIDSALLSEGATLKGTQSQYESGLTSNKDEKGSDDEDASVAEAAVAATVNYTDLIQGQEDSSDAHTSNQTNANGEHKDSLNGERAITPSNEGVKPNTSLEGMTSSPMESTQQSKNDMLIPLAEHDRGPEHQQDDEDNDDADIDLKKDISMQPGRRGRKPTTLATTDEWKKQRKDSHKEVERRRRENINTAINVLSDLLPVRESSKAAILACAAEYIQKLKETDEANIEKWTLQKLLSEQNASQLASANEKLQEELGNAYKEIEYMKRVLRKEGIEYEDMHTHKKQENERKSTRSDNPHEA
Technique: competition protein-binding microarray
Molecule type: double-stranded DNA, one strand shown
Medium: in vitro
Concentration: 2 µM
Setting: whole 60-bp probe, lowest competitor level
Added: Pho4 competitor, 0.05 µM
Reading: higher = stronger binding
Constant ends, left off below: … GTCTTGATTCGCTTGACGCTGCTG
| Strand | fluorescence intensity |
| --- | --- |
| CCAGTTGGTTAAGGCACCGTGCTAATATCGCGGGGA | 58.1 a.u. |
| AAATTACTAAGTTGCGTCGTGGGTGACGCCGTATGA | 65.5 a.u. |
| TGCGCAACAACTTGGGACGTGGGTGTATGTCTAGAA | 68.4 a.u. |
| AAATTACTAAGTTGGGGTGTGGGTGACGCCGTATGA | 67.2 a.u. |
| CATACCCAACCTTGCCACGTGGGTGAAGATATTTGT | 1070 a.u. |
| ACACTTATGTGGTTCACCGTGCCGATGCTGTGTTTA | 57.3 a.u. |
| AAAGCGGTAATTTGTCACTATACTTCACATATCTAT | 81.8 a.u. |
| AGTTTTCCTTAGCACAGCATGACAATAACCGGGAAT | 83.8 a.u. |
| AAATTACTAAGTTGTCACTGCACTTACCCCGTATGA | 87.2 a.u. |

Block 3
Target: Interferon regulatory factor 7, full length, phosphomimetic (IRF7, Homo sapiens, UniProt Q92985, residues 1-503, S101K/S471D/S472D/S475D/S476D/S477D/S483D/S484D/S487D)
Technique: protein-binding microarray
Molecule type: double-stranded DNA, one strand shown
Medium: in vitro
Concentration: 250 nM
Setting: 60-bp whole probe
Added: salmon DNA 0.4 mg/ml
Baseline: random background probes
Reading: higher = stronger binding
Constant ends, left off below: GCCTAGCAC … GTCTTGATTCGCTTGACGCTGCTG
Residues (chain): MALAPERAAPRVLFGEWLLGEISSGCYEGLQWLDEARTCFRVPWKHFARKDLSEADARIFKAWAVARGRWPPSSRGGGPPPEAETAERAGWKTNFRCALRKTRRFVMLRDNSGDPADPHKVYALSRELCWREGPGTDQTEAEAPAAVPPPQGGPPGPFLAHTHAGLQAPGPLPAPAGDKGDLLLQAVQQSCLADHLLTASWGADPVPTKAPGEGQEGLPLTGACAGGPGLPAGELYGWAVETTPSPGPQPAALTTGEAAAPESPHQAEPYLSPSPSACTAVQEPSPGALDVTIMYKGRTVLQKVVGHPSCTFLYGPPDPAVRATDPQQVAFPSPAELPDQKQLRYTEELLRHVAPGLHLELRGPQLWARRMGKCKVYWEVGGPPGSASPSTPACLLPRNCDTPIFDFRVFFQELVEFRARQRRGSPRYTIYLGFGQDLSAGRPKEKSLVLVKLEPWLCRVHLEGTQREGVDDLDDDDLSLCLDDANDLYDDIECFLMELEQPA
| Strand | log fluorescence [z-score] |
| --- | --- |
| TTAGGTATCCTACAGCTTTAGTGCTAG | -0.0631 |
| GACGATATAGGGACTGGAGACGTGCTA | -0.331 |
| TTAGGTTTCCTTTCCTTTTAGTGCTAG | 4.58 |
| TACGAACTGAGTTTCGAGACGTGCTAG | 3.69 |
| TTATGACTGCTTCTCCTTTAGTGCTAG | 0.203 |
| GACGGTTTCGGGACAGGGGACGTGCTA | 4.76 |
| GACGGACTGGGTCTCGGCACGTGCTAG | -0.73 |
| TACTAGAGTAAAACCCTGGCGTGCTAG | -0.0548 |

Single results of other studies
| Molecule | target | assay | system | conditions | how to read | endpoint | value |
| --- | --- | --- | --- | --- | --- | --- | --- |
| PhoQ, residues 284 288 289 292 302 303 NLMGRA | PhoP, residues 12 14 15 18 19 SFCSL (Escherichia coli, UniProt P23836) | Sort-seq, measured: YFP reporter | E. coli | PhoQ-PhoP variant library, added: 10 µM Mg2+ | baseline: high Mg2+ state, higher = stronger signaling | fold induction | 22.4 |

Excerpt of the above (block 3):
| Strand | log fluorescence [z-score] |
| --- | --- |
| TTATGACTGCTTCTCCTTTAGTGCTAG | 0.203 |
| GACGGTTTCGGGACAGGGGACGTGCTA | 4.76 |
| GACGGACTGGGTCTCGGCACGTGCTAG | -0.73 |
| TACTAGAGTAAAACCCTGGCGTGCTAG | -0.0548 |
